Measurements pooled from the literature.
Compare with care: the assays were run in different laboratories. ± gives the spread as reported.

SMILES | assay | test system | setting | scale | measurement | value
Cc1ccc(NC(=O)c2ccc(CN3CCN(C)CC3)cc2)cc1Nc1nccc(-c2cncc(-c3oncc3C)c2)n1 | – | healthy volunteers, plasma | oral, 200.0 mg once daily, day 7, 7-day dosing, mean | – | Tmax | 5 h
Cc1nc(-c2ccc(OCC(C)C)c(C#N)c2)sc1C(=O)O | – | pediatric patients under sample A kg, plasma | oral, 20 mg once daily, fed, PopPK post hoc | – | Tmax at steady state | 1.43 ± 0.4 h
CC[C@H](C)[C@H](NC(=O)[C@H](Cc1ccccc1)NC(=O)[C@H](CCC(=O)O)NC(=O)[C@H](CCCCNC(=O)COCCOCCNC(=O)COCCOCCNC(=O)CC[C@H](NC(=O)CCCCCCCCCCCCCCCCC(=O)O)C(=O)O)NC(=O)[C@H](C)NC(=O)[C@H](C)NC(=O)[C@H](CCC(N)=O)NC(=O)CNC(=O)[C@H](CCC(=O)O)NC(=O)[C@H](CC(C)C)NC(=O)[C@H](Cc1ccc(O)cc1)NC(=O)[C@H](CO)NC(=O)[C@H](CO)NC(=O)[C@@H](NC(=O)[C@H](CC(=O)O)NC(=O)[C@H](CO)NC(=O)[C@@H](NC(=O)[C@H](Cc1ccccc1)NC(=O)[C@@H](NC(=O)CNC(=O)[C@H](CCC(=O)O)NC(=O)C(C)(C)NC(=O)[C@@H](N)Cc1cnc[nH]1)[C@@H](C)O)[C@@H](C)O)C(C)C)C(=O)N[C@@H](C)C(=O)N[C@@H](Cc1c[nH]c2ccccc12)C(=O)N[C@@H](CC(C)C)C(=O)N[C@H](C(=O)N[C@@H](CCCNC(=N)N)C(=O)NCC(=O)N[C@@H](CCCNC(=N)N)C(=O)NCC(=O)O)C(C)C | – | Japanese subjects | subcutaneous once weekly, 1.0 mg, median | – | tmax at steady state | 36 h
CC(C)(CC(=O)N1CCCC1)NCC(=O)N1C[C@@H](F)C[C@H]1C#N | – | Chinese type 2 diabetes patients, plasma | oral, 200 mg once daily, multiple doses | – | Tmax at steady state | 4 h
Cn1c(-c2ccc(C(N)=O)cc2F)nnc1C(C)(C)Oc1c(F)cc(Cl)cc1F | – | healthy young Japanese subjects, plasma | oral, 20 mg once daily, day 18, 14 days dosing | – | Tmax range | 0.5 to 4 h
CC[C@H](C)[C@H](NC(=O)[C@H](Cc1ccccc1)NC(=O)[C@H](CCC(=O)O)NC(=O)[C@H](CCCCNC(=O)COCCOCCNC(=O)COCCOCCNC(=O)CC[C@H](NC(=O)CCCCCCCCCCCCCCCCC(=O)O)C(=O)O)NC(=O)[C@H](C)NC(=O)[C@H](C)NC(=O)[C@H](CCC(N)=O)NC(=O)CNC(=O)[C@H](CCC(=O)O)NC(=O)[C@H](CC(C)C)NC(=O)[C@H](Cc1ccc(O)cc1)NC(=O)[C@H](CO)NC(=O)[C@H](CO)NC(=O)[C@@H](NC(=O)[C@H](CC(=O)O)NC(=O)[C@H](CO)NC(=O)[C@@H](NC(=O)[C@H](Cc1ccccc1)NC(=O)[C@@H](NC(=O)CNC(=O)[C@H](CCC(=O)O)NC(=O)C(C)(C)NC(=O)[C@@H](N)Cc1cnc[nH]1)[C@@H](C)O)[C@@H](C)O)C(C)C)C(=O)N[C@@H](C)C(=O)N[C@@H](Cc1c[nH]c2ccccc12)C(=O)N[C@@H](CC(C)C)C(=O)N[C@H](C(=O)N[C@@H](CCCNC(=N)N)C(=O)NCC(=O)N[C@@H](CCCNC(=N)N)C(=O)NCC(=O)O)C(C)C | LC-MS/MS | healthy fasting men, plasma | oral, 10 mg, taken with 50 mL water | – | tmax | 1.5 h
O=C(NC[C@H]1CN(c2ccc(N3CCOCC3=O)cc2)C(=O)O1)c1ccc(Cl)s1 | – | renal impairment patients | oral, 10 mg | reference: normal renal function | Tmax decrease | ~1 h
C[C@@H](N)c1cc(Cl)ccc1Cn1c(=S)[nH]c(=O)c2[nH]ccc21 | – | healthy Japanese volunteers, plasma | oral, 2.5 mg once daily, day 1, median | – | tmax | 1 h
CC[C@H](C)[C@H](NC(=O)[C@H](CCC(=O)O)NC(=O)[C@H](CO)NC(=O)[C@@H](NC(=O)[C@@H](N)CO)C(C)C)C(=O)N[C@@H](CCC(N)=O)C(=O)N[C@@H](CC(C)C)C(=O)N[C@@H](CCSC)C(=O)N[C@@H](Cc1cnc[nH]1)C(=O)N[C@@H](CC(N)=O)C(=O)N[C@@H](CC(C)C)C(=O)NCC(=O)N[C@@H](CCCCN)C(=O)N[C@@H](Cc1cnc[nH]1)C(=O)N[C@@H](CC(C)C)C(=O)N[C@@H](CC(N)=O)C(=O)N[C@@H](CO)C(=O)N[C@@H](CCSC)C(=O)N[C@@H](CCC(=O)O)C(=O)N[C@@H](CCCN=C(N)N)C(=O)N[C@H](C(=O)N[C@@H](CCC(=O)O)C(=O)N[C@@H](Cc1c[nH]c2ccccc12)C(=O)N[C@@H](CC(C)C)C(=O)N[C@@H](CCCN=C(N)N)C(=O)N[C@@H](CCCCN)C(=O)N[C@@H](CCCCN)C(=O)N[C@@H](CC(C)C)C(=O)N[C@@H](CCC(N)=O)C(=O)N[C@@H](CC(=O)O)C(=O)N[C@H](C(=O)N[C@@H](Cc1cnc[nH]1)C(=O)N[C@@H](CC(N)=O)C(=O)N[C@@H](Cc1ccccc1)C(=O)O)C(C)C)C(C)C | – | postmenopausal osteoporotic women | subcutaneous, 20 µg | reference: thigh over abdominal wall injection | Tmax prolongation | 1.5 min
CN[C@H](CC(C)C)C(=O)N[C@H]1C(=O)N[C@@H](CC(N)=O)C(=O)N[C@H]2C(=O)N[C@H]3C(=O)N[C@H](C(=O)N[C@H](C(=O)O)c4cc(O)cc(O)c4-c4cc3ccc4O)[C@H](O)c3ccc(c(Cl)c3)Oc3cc2cc(c3O[C@@H]2O[C@H](CO)[C@@H](O)[C@H](O)[C@H]2O[C@H]2C[C@](C)(N)[C@H](O)[C@H](C)O2)Oc2ccc(cc2Cl)[C@H]1O | microdialysis | pig, vertebral cancellous bone | intravenous infusion, 1000 mg, infusion 100 min | – | Tmax | 2.65 h
Oc1ccc2c3c(cnc2c1)-c1ccc(C(F)(F)F)cc1O[C@@H]3c1ccc(OCCN2CC(CF)C2)cc1 | – | healthy women, fasted, plasma | oral, 400 mg, single dose, median | – | tmax | 2 h
COc1cc(OC)c(/C=C/S(=O)(=O)Cc2ccc(OC)c(NCC(=O)O)c2)c(OC)c1 | – | cancer patients, phase I, plasma | oral, 70 mg twice daily, day 1 cycle 1 | – | Tmax | 1.17 ± 0.29 h
OC[C@H]1O[C@@H](c2ccc(Cl)c(Cc3ccc(O[C@H]4CCOC4)cc3)c2)[C@H](O)[C@@H](O)[C@@H]1O | – | healthy male, plasma | oral, range, with or without lobeglitazone | – | Tmax at steady state | 0.67 to 4 h
N[C@@H](CC(=O)N1CCc2c(nc(C(F)(F)F)nc2C(F)(F)F)C1)CN1CC(F)(F)CCC1=O | – | healthy Korean male volunteers, plasma | oral, 50 mg daily for 6 days, day 7, median, together with: glimepiride 4 mg | – | Tmax at steady state | 3 h
C=C(C)[C@@H]1CC[C@]2(NCCN3CCS(=O)(=O)CC3)CC[C@]3(C)[C@H](CC[C@@H]4[C@@]5(C)CC=C(C6=CC[C@@](CF)(C(=O)O)CC6)C(C)(C)[C@@H]5CC[C@]43C)[C@@H]12 | – | HIV-1-positive treatment-naive adults, plasma | oral, 40 mg single dose, day 1, with food | – | tmax | 4.42 h

A few entries again:
SMILES | assay | test system | setting | scale | measurement | value
O=C(NC[C@H]1CN(c2ccc(N3CCOCC3=O)cc2)C(=O)O1)c1ccc(Cl)s1 | – | renal impairment patients | oral, 10 mg | reference: normal renal function | Tmax decrease | ~1 h
